Experimental data of several laboratories.
Protocols differ between the studies behind these lines.

For C[C@H]1CN(C(=O)CC#N)[C@]12CCN(c1ncnc3[nH]ccc13)C2, “subjects with dry skin” read 0% (healthy human; oral, 6 mg single).
CC[C@H](C)[C@H](NC(=O)[C@H](Cc1ccccc1)NC(=O)[C@H](CCC(=O)O)NC(=O)[C@H](CCCCNC(=O)COCCOCCNC(=O)COCCOCCNC(=O)CC[C@H](NC(=O)CCCCCCCCCCCCCCCCC(=O)O)C(=O)O)NC(=O)[C@H](C)NC(=O)[C@H](C)NC(=O)[C@H](CCC(N)=O)NC(=O)CNC(=O)[C@H](CCC(=O)O)NC(=O)[C@H](CC(C)C)NC(=O)[C@H](Cc1ccc(O)cc1)NC(=O)[C@H](CO)NC(=O)[C@H](CO)NC(=O)[C@@H](NC(=O)[C@H](CC(=O)O)NC(=O)[C@H](CO)NC(=O)[C@@H](NC(=O)[C@H](Cc1ccccc1)NC(=O)[C@@H](NC(=O)CNC(=O)[C@H](CCC(=O)O)NC(=O)C(C)(C)NC(=O)[C@@H](N)Cc1cnc[nH]1)[C@@H](C)O)[C@@H](C)O)C(C)C)C(=O)N[C@@H](C)C(=O)N[C@@H](Cc1c[nH]c2ccccc12)C(=O)N[C@@H](CC(C)C)C(=O)N[C@H](C(=O)N[C@@H](CCCNC(=N)N)C(=O)NCC(=O)N[C@@H](CCCNC(=N)N)C(=O)NCC(=O)O)C(C)C: “subjects with recovered adverse events” 83.1% (healthy human; subcutaneous, 0.25 to 1.5 mg weekly, 16 weeks).
C[C@@H](c1nc(-c2ccc(C#N)cc2)cs1)[C@](O)(Cn1cncn1)c1cc(F)ccc1F: “subjects with TEAEs” 0% (item: abdominal pain; humans; oral, dose not given, with: ketoconazole).
Under “subjects with Epistaxis adverse event”, Cc1cc(-c2nccc3c2ccn3CC(=O)Nc2ccc(-c3cnccn3)cn2)ccn1 is recorded as 11.1% (human; 15 mg once daily, multiple ascending dose).
C=C(C)[C@@H]1CC[C@]2(NCCN3CCS(=O)(=O)CC3)CC[C@]3(C)[C@H](CC[C@@H]4[C@@]5(C)CC=C(C6=CC[C@@](CF)(C(=O)O)CC6)C(C)(C)[C@@H]5CC[C@]43C)[C@@H]12 — result for “subjects with groin pain”: 17% (healthy human volunteers; oral, 500 mg, 7 days).
CO[C@H]1C[C@@H]2CC[C@@H](C)[C@@](O)(O2)C(=O)C(=O)N2CCCC[C@H]2C(=O)O[C@H]([C@H](C)C[C@@H]2CC[C@@H](O)[C@H](OC)C2)CC(=O)[C@H](C)/C=C(\C)[C@@H](O)[C@@H](OC)C(=O)[C@H](C)C[C@H](C)/C=C/C=C/C=C/1C: “subjects with TEAEs” 13.6% (healthy human subjects; oral, dose not given).
Cc1cc(Nc2cc3ncccc3c(N[C@@H]3C[C@H]4CC[C@@H](C3)N4CCC#N)n2)n[nH]1 — result for “subjects with contact dermatitis”: 50% (healthy human; oral, 100 mg single dose, 2 weeks).
For CC(C)(C(=O)N1CCOc2c(C#N)cncc2C1)C(F)F, “subjects with fatigue TEAE” read 0% (human, both sexes; oral, 10 mg single dose).
COC(=O)N[C@H](C(=O)N1CCC[C@H]1c1ncc(-c2cc(F)c3c(c2)O[C@@H](c2cnc(C4CC4)s2)n2c-3cc3cc(-c4cnc([C@@H]5CCCN5C(=O)[C@@H](NC(=O)OC)C(C)C)[nH]4)ccc32)[nH]1)C(C)C: “subjects with abdominal pain” 0% (healthy adult human; oral, 180 mg, 6 days, compound alone).
C=CC(=O)NC1CCN(c2ncc3ncnc(Nc4ccc(Oc5ccc6c(c5)ncn6C)c(C)c4)c3n2)CC1: “subjects with adverse events” 0% (healthy male human; oral, 60 mg, 2 weeks, maximum CTCAE grade 5).
CO[C@]1(C(=O)N[C@@H](C)c2ccc(-n3cc(F)cn3)nc2)CC[C@H](c2nc(C)cc(Nc3cc(C)[nH]n3)n2)CC1 — result for “subjects with adverse events”: 40% (healthy human; oral, dose not given, both treatments).
CC(=O)CC(c1ccccc1)c1c(O)c2ccccc2oc1=O (stereo not drawn) — result for “subjects AE-related withdrawal”: 0% (human; concentration not given, trial 1).
O=C(COc1ccc(Cl)cc1)NC12CC(c3nnc([C@H]4C[C@@H](OC(F)(F)F)C4)o3)(C1)C2: “subjects with mild TEAE” 82.4% (humans, MAD; oral, dose not given, 14 days, all doses, highest severity).
For CC(=O)N(C)[C@H]1CCN(C(=O)c2cnc3c(c2)C[C@](C)(c2ccc(F)cc2)N3)C1, “subjects with serious AEs” read 0% (healthy male human; oral, dose not given, all doses pooled).
For Cc1nc(Nc2ncc(C(=O)Nc3c(C)cccc3Cl)s2)cc(N2CCN(CCO)CC2)n1, “subjects with TEAE” read 61.1% (human; oral, 100 mg).
CCC(C)n1ncn(-c2ccc(N3CCN(c4ccc(OCC5COC(Cn6cncn6)(c6ccc(Cl)cc6Cl)O5)cc4)CC3)cc2)c1=O (stereo not drawn) — result for “subjects with abdominal pain”: 0% (healthy humans; oral, 200 mg, dosed days 8 and 9).
For CCO, “subjects with treatment-related adverse events” read 88.9% (human).
CN1C(=O)[C@@H](NC(=O)c2nnc(Cc3ccccc3)[nH]2)COc2cccnc21 — result for “subjects with headache”: 0% (human, fasted; oral, 10 mg single dose).
CN(Cc1cnc2nc(N)nc(N)c2n1)c1ccc(C(=O)N[C@@H](CCC(=O)O)C(=O)O)cc1 — result for “subjects with adverse event”: 4.2% (item: nervous system disorders; healthy human; oral, dose not given).
For C[C@@H](Oc1ccc(S(C)(=O)=O)cc1C(=O)N1C[C@@H]2C[C@]2(c2cc(C(F)(F)F)on2)C1)C(F)(F)F, “subjects with adverse events” read 50% (human; oral plus intravenous microtracer, 25 mg oral plus 30 µg IV, on-treatment period).
Under “subjects with adverse event”, C[C@H]1O[C@@H](O[C@H]2[C@@H](O)C[C@H](O[C@H]3[C@@H](O)C[C@H](O[C@H]4CC[C@@]5(C)[C@H](CC[C@@H]6[C@@H]5C[C@@H](O)[C@]5(C)[C@@H](C7=CC(=O)OC7)CC[C@]65O)C4)O[C@@H]3C)O[C@@H]2C)C[C@H](O)[C@@H]1O is recorded as 4.2% (item: nervous system disorders; healthy human; oral, dose not given).
CC(C)n1c(Nc2cccnc2)nc2cnc(Nc3ccc(N4CCN(C)CC4)cc3)nc21: “subjects with TEAE” 2.4% (item: sinus bradycardia; healthy human, male; oral, dose not given, CTCAE grade 1-3).
Under “subjects with nausea”, C[C@@H](N)c1cc(Cl)ccc1Cn1c(=S)[nH]c(=O)c2[nH]ccc21 is recorded as 10% (human matched controls; oral, 2.5 mg single dose).
Under “subjects with adverse event”, CN(C)C(=N)N=C(N)N is recorded as 20.8% (item: Diarrhea; healthy human; oral, dose not given).
C=CC[C@@H]1/C=C(\C)C[C@H](C)C[C@H](OC)[C@H]2O[C@@](O)(C(=O)C(=O)N3CCCC[C@H]3C(=O)O[C@H](/C(C)=C/[C@@H]3CC[C@@H](O)[C@H](OC)C3)[C@H](C)[C@@H](O)CC1=O)[C@H](C)C[C@@H]2OC — result for “subjects with TEAEs”: 33.3% (healthy human subjects; oral, dose not given).
CC(C)c1c(C(=O)Nc2ccccc2)c(-c2ccccc2)c(-c2ccc(F)cc2)n1CC[C@@H](O)C[C@@H](O)CC(=O)O — result for “subjects with adverse event”: 3% (item: any adverse event; healthy human; oral, dose not given; relative to: subjects).
CO[C@H]1/C=C/O[C@@]2(C)Oc3c(C)c(O)c4c(O)c(c(/C=N/N5CCN(C)CC5)c(O)c4c3C2=O)NC(=O)/C(C)=C\C=C\[C@H](C)[C@H](O)[C@@H](C)[C@@H](O)[C@@H](C)[C@H](OC(C)=O)[C@@H]1C: “subjects with TEAEs” 29.2% (item: renal and urinary disorders (SOC); humans; oral, dose not given).
